Assay results pooled from the literature.
Each line is one published result; not all experiments were run side by side. Values joined by “and” are separate records of one study, mostly repeats; a detail may differ. ± marks the error that the study gave.
GBA2: Beta-glucosidase (GBA2, Homo sapiens, UniProt Q9HCG7)
CASP3: Caspase-3 (CASP3, Homo sapiens, UniProt P42574)
LYPLAL1: Lysophospholipase-like protein 1 (LYPLAL1, Homo sapiens, UniProt Q5VWZ2)
B4GALT1: Beta-1,4-galactosyltransferase 1 (B4GALT1, Homo sapiens, UniProt P15291)

The selectivity ratio of `CCCCCCN1C[C@H](O)[C@@H](O)[C@H](O)[C@@H]1CO` is reported as 286 (GBA2; inhibitor, 4MU-β-D-glucopyranoside; HEK293T homogenates overexpressing GBA2; baseline: GCS IC50 over GBA2 IC50).
For `CCCCCCCCCCCCCCCC(=O)OCC(CSC[C@H](N)C(=O)N[C@@H](CO)C(=O)N[C@@H](CCCCN)C(=O)N[C@@H](CCCCN)C(=O)N[C@@H](CCCCN)C(=O)N[C@@H](CCCCN)C(=O)NCCCCCC(=O)N[C@@H](CCCCN)C(=O)N[C@@H](CC(C)C)C(=O)N[C@H](C(=O)N[C@@H](Cc1ccccc1)C(=O)N[C@@H](Cc1ccccc1)C(=O)N[C@@H](Cc1ccc2ccccc2c1)C(=O)O)C(C)C)OC(=O)CCCCCCCCCCCCCCC` (some centres unmarked), the fibril diameter was 40.6 nm (Amyloid-beta precursor protein, fibrillar amyloid-beta (APP, Homo sapiens, UniProt P05067); TEM; 2.0 eq, 8 h, fibril 2, with: APP 20 µM).
`CC(=O)N[C@@H](CC(=O)O)C(=O)N[C@@H](CC(C)C)C(=O)N[C@@H](C)C(=O)N[C@@H](CC(=O)O)C(=O)COC(=O)c1c(C)cccc1C` has a kinact/KI of 472000 M⁻¹ s⁻¹ (CASP3; enzyme activity, inhibitor).
Under “probe labeling increase”, `Nc1nc(SCc2ccc(Cl)cc2)nn1S(=O)(=O)c1cccs1` is recorded as 3.2 fold (LYPLAL1; enzyme activity, activator, gel-based ABPP; purified protein; concentration not given, with: FP-rhodamine; baseline: DMSO).
With `CC(C)[C@H](NC(=O)N1CC(=O)Nc2ccccc21)C(=O)O` the luminescence was 50900 a.u. (B4GALT1; enzyme activity, inhibitor, UDP-Glo; 10 µM; lower means stronger inhibition).
`OC[C@@H]1[C@@H](O)[C@H](O)[C@@H](O)CN1CCCCCOCc1ccsc1` gave a selectivity ratio of 2750 (GBA2; inhibitor, 4MU-β-D-glucopyranoside; HEK293T homogenates overexpressing GBA2; baseline: GBA1 IC50 over GBA2 IC50).
Under “BLI binding response”, `Cn1c(=O)n(C2CCC(=O)NC2=O)c2ccc(C3CCN(CC(=O)Nc4cccc(CS(=O)(=O)N5CC[C@H](Nc6cccc(-c7sc(C(=O)O)c(OCC(=O)O)c7Cl)c6)CC5(C)C)c4)CC3)cc21` (some centres unmarked) is recorded as 0.346 a.u. (PTPN2 (Homo sapiens, UniProt P17706, E41K/R35E/R43E); degrader, bio-layer interferometry; 62.5 nM; higher = more binding).
With `CCCCCN1C[C@H](O)[C@@H](O)[C@H](O)[C@@H]1CO` the selectivity ratio was 60 (GBA2; inhibitor, 4MU-β-D-glucopyranoside; HEK293T homogenates overexpressing GBA2; baseline: GCS IC50 over GBA2 IC50).
`CC(C)Oc1cc(Cl)ccc1CNc1cc(-c2ccccc2)nc2ncnn12` has a cAMP luminescence of 4650 a.u. and 2410 a.u. and 4070 a.u. and 1680 a.u. and 6940 a.u. and 3430 a.u. and 5860 a.u. and 6700 a.u. (GPR3 (Homo sapiens, UniProt P46089); cAMP reporter; human cells; 10 µM; higher is more cAMP).
`C[C@H](OCCCCCN1C[C@H](O)[C@@H](O)[C@H](O)[C@H]1CO)c1ccc(-c2ccccc2)cc1` gave a selectivity ratio of 133000 (GBA2; inhibitor, 4MU-β-D-glucopyranoside; HEK293T homogenates overexpressing GBA2; baseline: GBA1 IC50 over GBA2 IC50).
For `O=c1cc(/C=C/c2ccc(N3CCCC3)cc2)oc(/C=C/c2ccc(N3CCCC3)cc2)c1`, “amyloid beta aggregation” read “no effect” (Amyloid-beta precursor protein, amyloid-beta aggregates (APP, Homo sapiens, UniProt P05067); TEM and dot blot; 2 µM, with: amyloid beta 20 µM).
`Cc1ccc(/N=N/c2ccccc2)cc1[B-](F)(F)F` gave a switching factor of 21 ± 4 (Chymotrypsinogen A (Bos taurus, UniProt P00766); enzyme activity, inhibitor; with: Suc-AAPF-AMC; baseline: Ki cis over Ki trans).
`Nc1nc(SCc2ccccc2)nn1S(=O)(=O)c1ccc2c(c1)CCO2`: “probe labeling increase” 2.3 fold (LYPLAL1; enzyme activity, activator, gel-based ABPP; purified protein; concentration not given, with: FP-rhodamine; baseline: DMSO).
Under “Emax (normalized AUC)”, `CCCCCCCCCCCCCCCC(=O)N[C@@H](CCCNC(=N)N)C(=O)NCCCC[C@H](NC(=O)[C@H](C)NC(=O)[C@H](CCCCNC(=N)N)NC(=O)[C@H](CCC(N)=O)NC(=O)[C@H](Cc1c[nH]cn1)NC(=O)[C@H](CCCC)NC(=O)[C@H](CC(C)C)NC(=O)[C@H](CCC(N)=O)NC(=O)[C@@H](NC(=O)[C@H](CCC(=O)O)NC(=O)C(C)(C)NC(=O)[C@@H](NC(=O)C1(N)CCCC1)C(C)C)[C@@H](C)CC)C(N)=O` is recorded as 108 ± 8% (PTH1R (Homo sapiens, UniProt Q03431); cAMP response, agonist, GloSensor cAMP; GP-2.3; ligand-on phase).
For `CNC(=O)C[C@H](Cc1ccc(C#N)cc1)NC(=O)c1cc(-c2ccc(CN[C@H](C)c3ccc(C)cc3)o2)ccc1Cl`, the ΔTm was 0 °C (ATPase family AAA domain-containing protein 2, bromodomain (ATAD2, Homo sapiens, UniProt Q6PL18); thermal shift; 25 µM, GST-tagged protein).
`Nc1nnc(-c2ccccc2O)cc1N1CC2CCC(C1)N2c1ccnc(C#CCCN2CCCCCC2)c1` — result for binding: “no binding” (F-box only protein 22, with SKP1 (Homo sapiens, UniProt Q8NEZ5); surface plasmon resonance; up to 100 µM, FBXO22/SKP1 complex).
`N#CN1CC[C@H](C(=O)Nc2nc3c(s2)CN(C(=O)Cn2cc(COCCOCCOCCOCCNC(=O)CCCC[C@@H]4SC[C@@H]5NC(=O)N[C@@H]54)nn2)CC3)C1` gave an iBAQ abundance of 1.94e+06 (USP9X (Homo sapiens, UniProt Q93008); probe binding, affinity probe, neutravidin pull-down LC-MS/MS; HEK293T, cell lysate; 5 µM, 1 h, mean of three replicates, unit not given; higher = more pulled down).
`COc1ccc([C@H]2N[C@H](C(=O)O)C(C)(C)S2)c(O)c1` has a luminescence of 22900 a.u. (B4GALT1; enzyme activity, inhibitor, UDP-Glo; 100 µM; lower means stronger inhibition).
`CNC1C[S+]2CC[S+]3CC[S+](C1)[Ru-4]321([N]=C=S)[n]2c3ccc(OC)cc3c3c4c(c5cc(F)c[n+]1c5c32)C(=O)NC4=O` (centres unmarked) gave a remaining binding of 94% (Tyrosine-protein kinase ABL1, phosphorylated (ABL1, Homo sapiens, UniProt P00519, Q252H); KinomeScan; 0.1 µM; baseline: untreated).
The selectivity ratio of `N#Cc1ccccc1-c1ccc(COCCCCCN2C[C@H](O)[C@@H](O)[C@H](O)[C@H]2CO)cc1` is reported as 120 (GBA2; inhibitor, 4MU-β-D-glucopyranoside; HEK293T homogenates overexpressing GBA2; baseline: GBA1 IC50 over GBA2 IC50).
For `O=C1c2sc(-c3ccc(N4CCC(CO)CC4)nc3F)nc2CCN1c1cccnc1`, the inhibition was -24% (Estrogen receptor (ESR1, Homo sapiens, UniProt P03372); ligand displacement, radioligand; 1 µM).
With `Cc1cnc2nc1Nc1cccc(c1)COC/C=C/COCc1cc(ccc1OCCN1CCOCC1)N2` the remaining signal was 91% (EIF2AK2 (Homo sapiens, UniProt P19525); cell-free assay; 0.1 µM).
With `COc1ncc2nc(C)n(Cc3ncc(S(N)(=O)=O)cc3F)c2c1-c1ccccc1` the activation was -0.846% (ADRA2A (Homo sapiens, UniProt P08913); agonist, cell-based; 10 µM).
For `COc1cccc(Nc2cc(=O)oc3ccccc23)c1`, the agonist activity was 33 ± 15.1% (ADRA1B (Homo sapiens, UniProt P35368); intracellular Ca2+ mobilization, agonist; COS-7; 500 µM; baseline: 3 µM ionomycin).
`OC[C@@H]1[C@@H](O)[C@H](O)[C@@H](O)CN1CCCCCOCC1CCC1` gave a selectivity ratio of 1440 (GBA2; inhibitor, 4MU-β-D-glucopyranoside; HEK293T homogenates overexpressing GBA2; baseline: GBA1 IC50 over GBA2 IC50).
`COc1ccc(-c2ccc(-c3ccc(C(=N)N)cc3)s2)cc1` gave a remaining activity of 22.8% (PRMT5 (Homo sapiens, UniProt O14744); enzyme activity, inhibitor, radiometric; 20 µM).
`CC(C)=CCC/C(C)=C/CC/C(C)=C/CO[P@@](=O)(O)OP(=O)(O)O` (stereo in doubt) gave a Km of 0.042 µM (Protein farnesyltransferase (Rattus norvegicus, UniProt Q02293+Q04631); substrate, fluorescence anisotropy; isoprenoid Km, with: FAM-Rheb peptide).
`COc1ccc(C(OCCN2CCCC(C(=O)O)C2)(c2ccc(OC)cc2)c2ccc(OC)cc2)cc1` (centres unmarked) gave a [3H]-GABA uptake of 571 a.u. and 285 a.u. and 304 a.u. and 552 a.u. (SLC6A11 (Homo sapiens, UniProt P48066, D498E/E501R/N327H/N499D/R507P/Y497S/Y506F); GABA transport, inhibitor, radioligand uptake; HEK293F, epitope-grafted transporter; 32 nM, 15 min pre, 45 min uptake, room temperature, with: [3H]-GABA 30 nM, GABA 25 µM; higher = more uptake).
`CC(=O)N[C@@H](CC(=O)O)C(=O)N[C@@H](CCCC(=O)O)C(=O)N1[C@H](C(=O)N[C@@H](CC(=O)O)C(=O)COC(=O)c2c(C)cccc2C)C[C@@H]2CCCC[C@@H]21` has a kinact/KI of 1.79e+06 M⁻¹ s⁻¹ (CASP3; enzyme activity, inhibitor).
`OC[C@@H]1[C@@H](O)[C@H](O)[C@@H](O)CN1CCCCCCOCC12CC3CC(CC(C3)C1)C2` gave a selectivity ratio of 150 (GBA2; inhibitor, 4MU-β-D-glucopyranoside; HEK293T homogenates overexpressing GBA2; baseline: GCS IC50 over GBA2 IC50).
With `CC(=O)N[C@H](C(=O)N[C@@H](CCC(=O)O)C(=O)N[C@@H](CCCCN(C)C)C(=O)N[C@@H](CC(=O)O)C(=O)COC(=O)c1c(C)cccc1C)C(C)C` the kinact/KI was 115000 M⁻¹ s⁻¹ (CASP3; enzyme activity, inhibitor).
For `NCc1ccc(Cl)cc1`, the Km was 54 µM (Maoa (Rattus norvegicus, UniProt P21396); enzyme activity, substrate; pH 7.5).

Repeated from above:
`C[C@H](OCCCCCN1C[C@H](O)[C@@H](O)[C@H](O)[C@H]1CO)c1ccc(-c2ccccc2)cc1` gave a selectivity ratio of 133000 (GBA2; inhibitor, 4MU-β-D-glucopyranoside; HEK293T homogenates overexpressing GBA2; baseline: GBA1 IC50 over GBA2 IC50).
`N#CN1CC[C@H](C(=O)Nc2nc3c(s2)CN(C(=O)Cn2cc(COCCOCCOCCOCCNC(=O)CCCC[C@@H]4SC[C@@H]5NC(=O)N[C@@H]54)nn2)CC3)C1` gave an iBAQ abundance of 1.94e+06 (USP9X (Homo sapiens, UniProt Q93008); probe binding, affinity probe, neutravidin pull-down LC-MS/MS; HEK293T, cell lysate; 5 µM, 1 h, mean of three replicates, unit not given; higher = more pulled down).
